Published values gathered from unrelated publications.
Each numbered part is a random draw from the data of one study; scales do not carry over between parts.

Set 1
Target: Histone acetyltransferase KAT6A, winged helix 2, GST fusion (KAT6A, Homo sapiens, UniProt Q92794, residues 85-181)
Method: protein binding microarray
Molecule type: double-stranded DNA, one strand shown
Matrix: in vitro
Tested at: not given
Setting: 8-mer, flanks averaged, mean of 2 arrays, mostly near background
Reference: not given
Direction: higher = stronger binding
Residues (chain): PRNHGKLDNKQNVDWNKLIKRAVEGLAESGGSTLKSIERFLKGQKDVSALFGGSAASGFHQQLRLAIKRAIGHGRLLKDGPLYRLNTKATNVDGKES
Strand	E-score
GTGGACGA	-0.0652
AATCTTTG	8.5e-05
CGGATTGC	0.171
GGCAAGAC	-0.116
GGTAGGGA	-0.0764

Set 2
Target: Sal-like protein 4, full length isoform B (SALL4, Homo sapiens, UniProt Q9UJQ4-2, residues 1-616)
Method: universal PBM
Molecule type: double-stranded DNA, one strand shown
Matrix: in vitro
Tested at: not given
Setting: 8-mer, flanks averaged, mean of replicates
Direction: higher = stronger binding
Strand	E-score
AACCATCA	0.188
AGATGAGC	0.0318
CCTAAAAG	-0.0707
CATCGTAA	0.111
ACGTACCG	-0.0982

Set 3
Target: Protein C-ets-1 (ETS1, Homo sapiens, UniProt P14921, residues 1-441, full length assumed)
Method: protein-binding microarray
Molecule type: double-stranded DNA, one strand shown
Matrix: in vitro
Tested at: not given
Setting: k-mer, scored over probes, only values ≥0.25
Direction: higher = stronger binding
Target sequence (chain): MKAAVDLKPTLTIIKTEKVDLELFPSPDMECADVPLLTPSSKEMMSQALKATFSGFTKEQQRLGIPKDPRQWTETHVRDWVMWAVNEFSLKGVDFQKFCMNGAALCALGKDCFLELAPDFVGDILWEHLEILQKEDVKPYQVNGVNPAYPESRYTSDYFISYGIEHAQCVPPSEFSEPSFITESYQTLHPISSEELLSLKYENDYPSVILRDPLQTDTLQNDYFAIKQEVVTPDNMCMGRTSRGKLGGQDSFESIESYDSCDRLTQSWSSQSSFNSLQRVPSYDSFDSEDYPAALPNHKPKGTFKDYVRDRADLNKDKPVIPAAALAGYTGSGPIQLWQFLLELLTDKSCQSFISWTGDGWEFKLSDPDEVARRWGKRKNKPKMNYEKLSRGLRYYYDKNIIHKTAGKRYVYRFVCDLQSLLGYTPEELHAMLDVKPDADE
Strand	E-score
CTGCAGGA	0.336
TCCGGCCA	0.448
TCCGTCCA	0.327
ACTTCCCG	0.452

Other studies, line by line
Substance	target	test	system	conditions	how to read	quantity	result
PhoQ, residues 284 288 289 292 302 303 NLMGRA	PhoP, residues 12 14 15 18 19 LHTVM (Escherichia coli, UniProt P23836)	Sort-seq, item: YFP reporter	E. coli	PhoQ-PhoP variant library, with: 10 µM Mg2+	reference: high Mg2+ state, higher = stronger signaling	fold induction	13.2
